{"data": "Assay results of several laboratories", "UCHL1": "Ubiquitin carboxyl-terminal hydrolase isozyme L1 (UCHL1, Homo sapiens, UniProt P09936)", "note": "Protocols differ between the studies behind these lines.", "chain of UniProt P09936 (whole entry, looked up)": "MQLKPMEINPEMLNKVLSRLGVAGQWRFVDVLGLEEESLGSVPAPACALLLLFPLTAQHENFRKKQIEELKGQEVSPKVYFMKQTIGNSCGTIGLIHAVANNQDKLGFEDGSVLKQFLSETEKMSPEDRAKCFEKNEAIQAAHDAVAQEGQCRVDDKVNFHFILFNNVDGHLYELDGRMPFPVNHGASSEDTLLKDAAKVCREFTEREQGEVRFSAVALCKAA"}
{"SMILES": "CCC1CCc2c(sc(N3C(=O)C4C5CCC(C5)C4C3=O)c2C(N)=O)C1 (centres unmarked)", "tested on": "UCHL1", "test": "covalent, intact protein LC-MS", "setting": "12.5 µM", "quantity": "labelling", "value": "23.5%"}
{"SMILES": "CN1C(=O)[C@@H](NC(=O)c2nnc(Cc3ccccc3)[nH]2)COc2cccnc21", "system": "healthy human, fasted, plasma", "setting": "oral, 800 mg single dose, geometric mean", "quantity": "Cmax", "value": "6120 ng/mL"}
{"SMILES": "O=C(O)CCC(=O)O.[2H]C([2H])([2H])Oc1cc(C)c2[nH]ccc2c1CN1CC[C@@H](C2CC2)C[C@H]1c1ccc(C(=O)O)cc1", "system": "human, plasma", "setting": "50 mg twice daily, day 10, multiple ascending dose, geometric mean", "quantity": "Cmax", "value": "2560 ng/mL"}
{"SMILES": "Cl.[2H]C([2H])([2H])CC(=O)c1cnc(NC(=O)C2CC2)cc1Nc1cccc(-c2ncn(C([2H])([2H])[2H])n2)c1OC", "test": "geometric mean", "system": "human", "setting": "oral, 20 mg once daily, day 7, fasted, liquid, multiple dose", "quantity": "Cmax", "value": "183 ng/mL"}
{"SMILES": "CCN1CCN(Cc2ccc(Nc3ncc(F)c(-c4cc(F)c5nc6n(c5c4)[C@H](C)CCC6)n3)nc2)CC1", "system": "human, plasma", "setting": "50 mg multiple dosing, mean", "quantity": "Cmax", "value": "92 ng/mL"}
{"SMILES": "CCn1cc(C(=O)N2CCOCC2)c(=O)c2cc(NC3Cc4ccccc4C3)cnc21", "system": "human, fed", "setting": "oral suspension, 2000 mg/day twice daily, day 8, arithmetic mean", "quantity": "Cmax", "value": "3080 ng/mL"}
{"SMILES": "CC(C)[C@H](N)C(=O)NCCCS(=O)(=O)O", "system": "human both sexes, plasma", "setting": "oral, 171 mg once daily, day 1, fasted capsule", "quantity": "Cmax", "value": "5550 ng/mL"}
{"SMILES": "C=C(C)C1CC=C(CN2CCN(Cc3ccccc3)CC2)CC1 (centres unmarked)", "tested on": "Trypanosoma cruzi", "test": "reporter translation, Renilla luciferase mRNA translation", "system": "cell-free extract", "setting": "40 µM", "scale": "baseline: DMSO", "quantity": "inhibition", "value": "2.8%"}
{"SMILES": "C[C@@H](Nc1cc(F)cc(F)c1)c1cc(C(=O)N(C)C)cc2c(=O)cc(N3CCOCC3)oc12", "system": "human", "setting": "oral, 120 mg twice daily, vistusertib alone, geometric LSM", "quantity": "Cmax", "value": "982 ng/mL"}
{"SMILES": "COc1ncc(-c2nc3c(n2C(C)C)[C@H](c2ccc(Cl)cc2)N(c2cc(Cl)cn(C)c2=O)C3=O)c(OC)n1", "test": "LC-MS/MS, noncompartmental", "system": "human, plasma", "setting": "oral, 150 mg, C2D1, high-dose, geometric mean", "quantity": "Cmax", "value": "1430 ng/mL"}
{"SMILES": "O=C(CCl)NC(Cn1cncn1)c1ccccc1 (centres unmarked)", "tested on": "UCHL1", "test": "covalent, intact protein LC-MS", "setting": "12.5 µM", "quantity": "labelling", "value": "13.3%"}
{"SMILES": "CCOc1c([C@H](C)n2nc(C)c3c(N)ncnc32)cc(Cl)c(F)c1[C@@H]1CNC(=O)C1", "system": "human patients, plasma", "setting": "oral, 20 mg, day 1", "quantity": "Cmax", "value": "1620 nM"}
{"SMILES": "C=CC(=O)N(C)CCOc1c(N)ncnc1-c1cc(F)cc(NC(=O)c2ccc(C3CC3)cc2F)c1C", "system": "human, whole blood", "setting": "oral, 25 mg once daily, day 1", "quantity": "Cmax", "value": "40.9 ng/mL"}
{"SMILES": "C[C@@H]1CCO[C@H]2Cn3cc(C(=O)NCc4ccc(F)cc4F)c(=O)c(O)c3C(=O)N12", "system": "human paediatric patients, weight sample B to under sample C kg, plasma", "setting": "oral, 30 mg dispersible tablet, steady state, geometric mean, population PK post-hoc, N 5", "quantity": "Cmax", "value": "6250 ng/mL"}
{"note": "A few entries again:"}
{"SMILES": "O=C(O)CCC(=O)O.[2H]C([2H])([2H])Oc1cc(C)c2[nH]ccc2c1CN1CC[C@@H](C2CC2)C[C@H]1c1ccc(C(=O)O)cc1", "system": "human, plasma", "setting": "50 mg twice daily, day 10, multiple ascending dose, geometric mean", "quantity": "Cmax", "value": "2560 ng/mL"}
